Results from different studies.
Each numbered part is a random draw from the data of one study; scales do not carry over between parts.

Block 1
Target: Sal-like protein 4, full length isoform B (SALL4, Homo sapiens, UniProt Q9UJQ4-2, residues 1-616)
Method: universal PBM
Molecule type: double-stranded DNA, one strand shown
Medium: in vitro
Tested at: not given
Setting: 8-mer, flanks averaged, mean of replicates
Direction: higher = stronger binding
Strand | E-score
CACGCTTA | 0.101
AAGATTAC | 0.126
AGTATAGG | 0.119
CTGATCAG | -0.198
ACGCATAC | 0.0875
CCATAACG | 0.123
ACCACCGA | -0.167
GTAGGAAC | 0.0981
GGGCTTAA | -0.0492
CCCAGTAC | -0.147
ACTAGCCA | 0.0205
GGAGCGTA | -0.133
CTGCCCAC | -0.176
GTTGTTGA | 0.106
GATTAAGA | 0.175
AACGTCGG | -0.0524
CTGAGAGC | -0.185
ACCGACTA | -0.113
CGTGGGGC | -0.32
GCTTCCAC | -0.214
CAGCTTCC | -0.25
AGTTTATA | 0.362
AGTTGGTG | -0.215
AGTGATCA | -0.076
CAGTCATC | -0.112

Block 2
Target: Interferon regulatory factor 7, full length, phosphomimetic (IRF7, Homo sapiens, UniProt Q92985, residues 1-503, S471D/S472D/S475D/S476D/S477D/S483D/S484D/S487D)
Chain of UniProt Q92985 (whole entry, unmodified, looked up): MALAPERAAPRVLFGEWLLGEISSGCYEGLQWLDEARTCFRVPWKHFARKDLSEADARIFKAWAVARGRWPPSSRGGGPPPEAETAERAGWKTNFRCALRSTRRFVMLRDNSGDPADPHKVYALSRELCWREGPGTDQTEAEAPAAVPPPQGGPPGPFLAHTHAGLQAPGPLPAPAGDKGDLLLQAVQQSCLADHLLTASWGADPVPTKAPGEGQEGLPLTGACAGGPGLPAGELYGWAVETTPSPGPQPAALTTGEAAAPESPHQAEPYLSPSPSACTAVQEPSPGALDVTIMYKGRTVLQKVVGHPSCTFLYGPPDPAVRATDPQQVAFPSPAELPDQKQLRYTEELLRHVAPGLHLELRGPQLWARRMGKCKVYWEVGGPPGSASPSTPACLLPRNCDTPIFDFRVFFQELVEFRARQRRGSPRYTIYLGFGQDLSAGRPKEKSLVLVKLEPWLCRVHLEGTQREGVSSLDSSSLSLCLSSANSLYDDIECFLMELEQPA
Method: protein-binding microarray
Molecule type: double-stranded DNA, one strand shown
Medium: in vitro
Tested at: 2200 nM top
Setting: 60-bp whole probe
Added: salmon DNA 0.4 mg/ml
Reference: random background probes
Direction: higher = stronger binding
Constant ends, left off below: GCCTAGCAC … GTCTTGATTCGCTTGACGCTGCTG
Strand | fitted relative affinity [z-score]
GACGGTTCCCTTTTCCTGCCGTGCTAG | 2.45
TTAGGACTGCTTCTCGTTTAGTGCTAG | 0.816
GCCGGTCTCGGTATCGGGACGTGCTAG | 0.31
TAGAATGTCCTTTCTCCATGGGTGCTA | 0.554
TTAGGTTCCGGTTTCGTTTAGTGCTAG | 8.06
TCAACTTCTCTTTTTGCACTGTGCTAG | 1.68
TGTTATTAAAATTTAATGGGGTGCTAG | -0.485
TCACGAGTCCCTATCTCACTGTGCTAG | 1.21
TTAGGTTTCCTTTCACTTTAGTGCTAG | 5.54
TTAGGACTGGACCATCGGTTAGTGCTA | -0.666
TTAGGTCTCGTTATCCTTTAGTGCTAG | 1.17
ACCTTTGTTTTTTTCTATATGTGCTAG | 2.52
GACTGTTCCCTTTTCCTGACGTGCTAG | 2.91
TCACTTTCCACTTGTCTTACTGTGCTA | 9.33
GACGGACTGGGTCTCGGGAGGTGCTAG | -0.791
TTAGGTCTCCCACTGCTTTAGTGCTAG | 0.643
GACGGGCTGGGTCTCGGGACGTGCTAG | -0.999
TTAGGGCTGCTTCTCCTTTAGTGCTAG | -0.108
TTCCTTCTGCCTGTCCATTCGTGCTAG | 2.51
GACGGTTTTGACACTGGGGACGTGCTA | 0.657
TTTTTTTCATATATATATGAGTGCTAG | 1.46
TTAGCACTGAGTTTCGATTAGTGCTAG | 3.49

Block 3
Target: RING finger protein unkempt homolog, zinc fingers 1-6, SBP tag (UNK, Homo sapiens, UniProt Q9C0B0, residues 30-357)
Chain of UniProt Q9C0B0 (30-357, looked up): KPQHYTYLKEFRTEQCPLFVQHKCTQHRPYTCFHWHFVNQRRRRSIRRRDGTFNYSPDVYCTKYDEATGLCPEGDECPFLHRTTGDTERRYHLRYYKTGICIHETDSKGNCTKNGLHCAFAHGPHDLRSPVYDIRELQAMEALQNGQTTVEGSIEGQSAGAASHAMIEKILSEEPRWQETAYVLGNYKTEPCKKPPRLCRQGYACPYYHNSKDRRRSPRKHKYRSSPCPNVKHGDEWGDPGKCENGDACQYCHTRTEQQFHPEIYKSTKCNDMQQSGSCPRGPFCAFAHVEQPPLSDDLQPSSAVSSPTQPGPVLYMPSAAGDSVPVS
Method: RNA Bind-n-Seq
Molecule type: RNA
Medium: in vitro
Tested at: 100 nM
Setting: RNA with constant flanks, vertebrate orthologous sites, ends assumed
Reference: input RNA pool
Direction: higher = stronger binding
Constant ends, left off below: GGGAGUUCUACAGUCCGACGAUC … CAACAGAGGAUUGAGCAUCA
Strand | bound/input enrichment
AAUAGUUUUAAGCUUGUUUGCACAGCUUUUUUUUUCCAUUGGAAAUGGAAUCCAUUGCCUUAGGUCUUUUUAAAUAGUGUAUUGUUAUCGUUGGGCUGGCUCUACGCUUGAAAUCCAGUU | 2.06 ratio
UACAUCUGGUGAUAUUUGGCCUGGCCUUUCAGCUUAUGAUAAUAGUCCCAGAUCACCCCAUAGUCCUUCACCGAUUGCUACACCACCGAGUCAGAGUUCAUCUUGCUCUGAUGCCCCUAU | 0.692 ratio
AGAAAAUUUUAACCAAGAAUCAGAAGGUAGAAAUUCAGGACCAUGGUUGUCUUCUUCACUUAGAAAUAGAUGCACACCUUUGUUCUCGAGAAGGAGGCGAGAGGGAAGGGAUGAGUCUUC | 0.762 ratio
UCAAUCAUGGAGAAAAAUAUAUUAAAAUAAUUCACGGCACUGAUGUUAAUUCUAGUCUGUUGGUUUUAUAAAAGUUAGGGUUCUUAUUUAGGAACAACAGGAAGUGACUGUUAAAGAGAA | 0.71 ratio
AAGCCCUGUGAAGGUCUACUGACCGCUCACUAUUGUCUGGUAUCUGUAAACACUUCUGUUUAGUCCUUUCAUGGUAUAAUUGAUGUUCUUUAAAACUGUCAGUGUAAAACAGGGCUUAUG | 0.585 ratio
CGUGUCCUUGCUACUGUGAUAUUUAAAAUAUCCACAGUACUCACUUCUUCCAAAUGAUUCUAACAGUUGCUUAGAAGUGUCUUUCUCUUACCUGUUAUUUAUCAAUUUUUCUCAGUAUUU | 0.418 ratio
UCCCAGCACUCUGAUAAAAAGUGUGGACUGGUUGCUUGUAUUUUCCUUAUUCUUUUUAAUCAGUUUUAUUAUGUACGCUACCAUUCGAACUGAGAGUAUUCGGUGGCUGAUUCCGGGACA | 0.487 ratio
GUGUUUGUUUUGCACAUGGCAGUGUUUAUAUUGAGGAUCUUCUGAGGAGGAAGGGGUGCCUAGCAGUGGUGCCUGGGCUCCUGGCCUCUAGCGCCCCACCCGCCUCAGCACCCUGCCUGG | 0.433 ratio
CAUGCACAUGACACUACCACCAAAAGCAAACACCUUUUUCAAAUUCAUUAAUAGCAUUUUUAGAAUUCCUUCCUUUCCUUCUGUUCCCCUAAUGCUUUAAACUAUUAGAAGUCCUGGUUC | 2.74 ratio
AGCCACCCAAGGAUUCAGGACUGGUUUUACAAAUAUGCCAAGUAGAUAUGGAACUAACAAUAGAAUUGGACAACCAAGACCAUAAGGUACUCUAAUUUACUUUAAUUUAUUUUAUGAGGA | 0.563 ratio
CAGCUGACUCACUCAUUGGGAGAGCUGCACAUAUAGCUGUUCUUGAUUCAGAAAUAUUUUUAGAGAAAUUCUUUCUGGUUGCUGCCCUCAAAUAUUUCCAGUAGGAUAAAACAUUGUUAA | 0.859 ratio

Block 4
Target: RNA binding protein fox-1 homolog 2, RRM domain, GST-SBP tag (RBFOX2, Homo sapiens, UniProt O43251-10, residues 100-194)
Method: RNA Bind-n-Seq
Molecule type: RNA
Medium: in vitro
Tested at: 365 nM
Setting: natural RNA segment, single round, ends assumed
Reference: no-protein control
Direction: higher = stronger binding
Constant ends, left off below: GGGAGUUCUACAGUCCGACGAUC … UGGAAUUCUCGGGUGCCAA
Construct (chain): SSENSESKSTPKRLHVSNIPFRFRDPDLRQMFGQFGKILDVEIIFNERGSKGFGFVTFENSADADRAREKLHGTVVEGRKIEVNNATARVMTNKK
Strand | RBNS enrichment (R)
CUCCUUUCAGAACAGGAAUGUGCCUCCUAAUGUUUACUGUUACCCUGCUGUCUCUGUAUGUCCAGUCGGUGGAACACUGUAAUGACUUGAGAAUAAACUGCCCAGAGUUC | 0.528
CCUGGCCCUGGCCUUGCUUGCCCAUGGUGUGUGUGUCCAGAGGUGUGUGUGAGGCUGCCAGAACAAGUGCUGGGUCUGUCACAGAGAAGUUUAAAAAAGAAAACUAAGAU | 1.46
UAGAUCUCUGUCUUCAGUCUCAUUUAAAGUCUUCAUGAAAUGCUGUGCCAUUUCAUGUCCUGUGUCAGUUUAUGUUUUGGUCCACUUUUCCAGUAUUUUAGUGGACCCUG | 0.56
UUGUUCUGUGUACUGUAUGUGACACAAGCCUACAGGAUUUGCACUAAGAAAAGCUUGGUAGGAGCUUGCUGCUAUGGAGGAAAGAACAUAUUAAAAACUUAUUUUCCCUC | 0.521
AUGGCUCUGCCUAGAGAUGUUCCUUGGGGUCUGUGAGGUUCUGUCAACUGCUAGUGCUAACGCUGUCCUGUACAACCUAACUCACUGGCAAGAAUGCAGUGUUGGGCCUU | 0.854
GCAGGGUUCCUGUGGCCCAGGAUGGAGGCCACCGCUGCCCUGCCAUCCCGUCUGCCUGCCAUGGGACGGCUCCUCUGAGUGUUCCCUGGCCCCACGUGUGUGGUGUUUGU | 0.328
GUCUCUCUGGGCUGCAGAGUCUGCCCCACAUGUGGCCAUGGCCUCUGCAACUGCUCAGCUCUGGUCCAGGCCCUGUGGCAGGACACACAUGGUGAGCCUAGCCCUGGGAC | 0.426
CAGUCCUUUAUCUGGAGGGAAAAGUCUGAUGCCAGCAGAGGUCCUGGGGCGCUGCUCUCCCAGGUCCUGGUCAGACUCAGCUCCAUAGCUCUUGGAGGCUUUCCCUGGAU | 0.719
GGUUCUUGUUUGAAAUUUUCAGUUCUCUUUAUCUUCCCAGUACCUCUUGGUCCUCAUAAUGGGCAAAGGAUACAACGAAGGCAGGUUGUAUAGGGGUUAUAGUGGGGAAG | 0.603
CUGUAGAGACUCUGGUACAGAGGGCAUGGGCACCUGCAGCAUUAUAGCUGUUCUGUCUCCUGGAGACCAAAGCUGGCUUGGAGGAAAAAAUGAUGCCCACAGUCUUGGGA | 1.31
AAUUGAGAUUGAUGUGUUUUCACUGGAUUUUUAUCUCUCUCAACUUCCUGCACUUAACAAUAUGAAAUAGAAACUUUUGUCUUUACUGAGAUGAGGAUAUGUUUGAGAUG | 0.487
UACUAACUUAUUUAUGUUAAAAGAUUUUUUUUAAUCUAGACAAUAUACAAGCCAAAGUGGCAUGUUUUGUGCAUUUGUAAAUGCUGUGUUGGGUAGAAUAGGUUUUCCCC | 0.708

Block 5
Target: Histone acetyltransferase KAT6A, both winged helices, GST fusion (KAT6A, Homo sapiens, UniProt Q92794, residues 1-181)
Method: protein binding microarray
Molecule type: double-stranded DNA, one strand shown
Medium: in vitro
Tested at: not given
Setting: 8-mer, flanks averaged, mean of 2 arrays, mostly near background
Reference: not given
Direction: higher = stronger binding
Residues (chain): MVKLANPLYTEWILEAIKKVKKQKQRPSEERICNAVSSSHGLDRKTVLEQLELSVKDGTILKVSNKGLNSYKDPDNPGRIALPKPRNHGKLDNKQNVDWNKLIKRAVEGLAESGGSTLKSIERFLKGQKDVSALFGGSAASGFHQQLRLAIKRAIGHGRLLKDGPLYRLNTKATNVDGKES
Strand | E-score
CGAGAGAG | -0.0561
AACTCGAA | -0.102
GGCCACTA | -0.0476
ATTGGCTA | -0.0834
ATGAACAG | -0.169
AGATTGAG | -0.152
AGGCGAAG | -0.086
CCAGAGGC | -0.0431
GCGCGAAC | 0.275
GCTTTGCA | -0.0769
AGCGAGAC | 0.0793
CGCTGAAG | 0.156
ACTGCAGC | -0.067
ACGGTCTC | 0.188
ACTAGCCA | -0.101
ACGTCCCA | -0.17
CACAATCC | -0.0474

Excerpt of the above (block 2):
Strand | fitted relative affinity [z-score]
GCCGGTCTCGGTATCGGGACGTGCTAG | 0.31
TAGAATGTCCTTTCTCCATGGGTGCTA | 0.554
TTAGGTTCCGGTTTCGTTTAGTGCTAG | 8.06
TCAACTTCTCTTTTTGCACTGTGCTAG | 1.68
TGTTATTAAAATTTAATGGGGTGCTAG | -0.485
TCACGAGTCCCTATCTCACTGTGCTAG | 1.21
TTAGGTTTCCTTTCACTTTAGTGCTAG | 5.54
TTAGGACTGGACCATCGGTTAGTGCTA | -0.666
TTAGGTCTCGTTATCCTTTAGTGCTAG | 1.17
ACCTTTGTTTTTTTCTATATGTGCTAG | 2.52
GACTGTTCCCTTTTCCTGACGTGCTAG | 2.91
